Assay results from different studies.
Every numbered part comes from another study and shows a few of its results, in no order. Changes are numbered by the printed parent chain.

Series 1 — target: CCNF, cyclin fold, Cln2 fusion (human); technique: yeast growth competition, sequencing; matrix: yeast; notes: strong parent motif; relative to: not given; direction: higher = stronger binding; starting sequence: viral docking peptide; YKVKRRLVFGADD
Variant | normalised enrichment score
YKLKRRLVFGADD [V3L] | 8.84
YKVRRRLVFGADD [K4R] | 8.71
YKVSRRLVFGADD [K4S] | 8.63
YKVKRLLVFGADD [R6L] | 8.22
YKVKRRLVFGASD [D12S] | 8.92
YKVKRRLVFGTDD [A11T] | 8.86
YKVKRRIVFGADD [L7I] | 7.8
YKVLRRLVFGADD [K4L] | 7.37

Series 2 — effect on: peptide-MHC binding; molecule type: peptide; direction: direction not given
Target: HLA class I histocompatibility antigen, A alpha chain, allele A*80:01 (Homo sapiens, UniProt P04439)
Sequence | z-score of log IC50
FHRKKTDAL | 0.38
GIADFIIFK | 0.38
DHIPIINTL | 0.38
GFPFFIMPK | 0.38
FTRYRKEAI | 0.38
DEEAINLFH | 0.38
AILAGEHKC | 0.38
FRYEFTAPF | 0.38

Series 3 — effect on: ligand displacement; concentration: 10 µM
Target: Mu-type opioid receptor (OPRM1, Homo sapiens, UniProt P35372)
Chain of UniProt P35372 (whole entry, looked up): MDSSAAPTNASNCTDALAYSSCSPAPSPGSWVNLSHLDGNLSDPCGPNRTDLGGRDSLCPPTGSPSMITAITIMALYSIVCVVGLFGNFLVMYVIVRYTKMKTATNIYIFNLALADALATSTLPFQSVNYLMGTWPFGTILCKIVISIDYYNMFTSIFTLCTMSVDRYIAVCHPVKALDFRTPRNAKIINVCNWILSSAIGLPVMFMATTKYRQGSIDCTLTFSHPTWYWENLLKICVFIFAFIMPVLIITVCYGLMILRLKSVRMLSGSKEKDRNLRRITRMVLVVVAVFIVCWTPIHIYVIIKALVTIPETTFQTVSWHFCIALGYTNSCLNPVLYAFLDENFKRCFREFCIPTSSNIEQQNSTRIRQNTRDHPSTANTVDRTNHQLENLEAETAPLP
SMILES | inhibition [%]
CC1CCN(c2ccnc(NCc3cn(C)cn3)n2)CC1 | 10.8
COc1cc(-c2cn(C3CCc4c(F)cccc4N(CC(F)(F)F)C3=O)nn2)ccc1-n1cnc(C)c1 (stereo not drawn) | 30.2
NS(=O)(=O)c1cc(NC(=O)Cc2ccccc2)ccc1Oc1cccc(Cl)c1 | 19.3
O=C(Nc1ccc(Oc2ccc(F)cc2)cc1)N1CCc2ncccc2[C@H]1c1ccc(F)cc1 | 37.1
CN1CCN(c2ccnc(NCCc3ccccc3)n2)CC1 | 25.9
c1ccc(N2CCN(Cc3nc4ccccc4[nH]3)CC2)nc1 | 13.2
Nc1nc(NCc2ccccc2)nc(-c2ccccc2CO)n1 | 11.9
CC(=O)N1CCC(c2ccc(C(=O)NC3=NCCN3)cc2C(F)(F)F)CC1 | -2.53
C[C@@H]1CN(c2cc(-c3n[nH]c4ccc(OC5(C)CC5)cc34)ncn2)C[C@H](C)O1 | -12.3
Cc1c(N2CCNCC2)nc2ccc(Br)cc2c1C(=O)NC[C@H](CCC(=O)O)c1ccccc1Cl | 40.9
COc1cc(C(=O)O)ncc1C#Cc1ccccc1NS(=O)(=O)c1cccc2c(N(C)C)ccnc12 | 35.4
O=S(=O)(NC1CCC(c2cc(F)ccc2F)(S(=O)(=O)c2ccc(Cl)cc2)CC1)C(F)(F)F (stereo not drawn) | 20
N#CC1(c2ccccn2)CCN(Cc2cc(C(=O)N3CCCC3)c(=O)n3ccccc23)CC1 | 35

Single results of other studies
Structure (SMILES) | organism | effect on | concentration | notes | relative to | quantity | result
Br.COc1ccc2c(c1)[C@]13CCCC[C@@H]1[C@H](C2)N(C)CC3 | Sarcocystis neurona | parasite growth | 10 µM | second screen | untreated | log2 fold change | 0.43
